Results of several laboratories.
Parts stem from different laboratories: compare values within a part only.

Sample 1
Target: Ras GTPase-activating protein-binding protein 1, full length (G3BP1, Homo sapiens, UniProt Q13283)
UniProt Q13283, sequence (whole entry, looked up): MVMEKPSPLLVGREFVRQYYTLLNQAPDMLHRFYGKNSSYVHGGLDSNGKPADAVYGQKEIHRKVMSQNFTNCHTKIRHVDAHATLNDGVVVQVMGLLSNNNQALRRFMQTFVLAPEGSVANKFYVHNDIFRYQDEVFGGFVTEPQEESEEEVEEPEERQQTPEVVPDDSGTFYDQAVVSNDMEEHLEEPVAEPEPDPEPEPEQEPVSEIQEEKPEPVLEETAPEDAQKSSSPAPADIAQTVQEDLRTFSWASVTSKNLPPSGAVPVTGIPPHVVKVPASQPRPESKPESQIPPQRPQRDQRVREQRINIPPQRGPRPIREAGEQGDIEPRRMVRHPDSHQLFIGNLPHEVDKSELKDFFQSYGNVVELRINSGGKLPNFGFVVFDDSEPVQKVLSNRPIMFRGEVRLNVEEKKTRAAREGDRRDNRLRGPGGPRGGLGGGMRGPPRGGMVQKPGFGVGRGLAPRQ
Technique: RNA Bind-n-Seq
Form: RNA
Sample: in vitro
Tested at: 200 nM
Notes: whole 134-nt RNA, ends assumed
Together with: 150 mM LiCl
Relative to: input library
Reading: higher = stronger binding
Each molecule: 7-deaza-guanosine replaces G
Shared flanks, not repeated: GGGAGUUCUACAGUCCGACGAUC … UGGAAUUCUCGGGUGUCAAGG
| Sequence | log2 enrichment |
| --- | --- |
| UUACGAUUAUAUCACCCGGACACACAUCAUGCUUAAGAUUCAACUGGGAGCAUACCAGGGAUGCUCUCUAACGUAAUCAAGGGAAGGUUC | -1.03 |
| GCAGGAAGUAGAAACAAAUGGAAAUGCUUCGGAUAGUGGCAGGGGUGGGGGUUGCUAAGGAAAGGGUGGGAUGGGAGUGGGUAAAGAGUU | 0.0115 |
| CACAGACAACACGCACCCACACAGACACAGAGGGAAGGGGUUGGGAUGGGGACAGGGUGCACAGCAGGGCGGGGUAAAACCCCAGCCCCU | 1.08 |
| CACAGACAACACGCACCCACACAGACACAGAGGGAAGGGGAUGGGAUGGGGACAGGGUGCACAGCAGGGCGGGGUAGGACCCCAGCCCCU | -0.904 |
| CCUCAAGUCCUGUGCUACACAUCGUAUGUACCGAAUCGGGUGGGUGGGGUGGGAAAGUAUUAUGUUACGCCGUUCGGAUCUGCACUUCCA | -0.733 |
| CCUGUGCUACACAUCGUAUGUACCGAAUCGGGCCCCCCGGGCCCCCCGGGCCCCCCGGGGAAAGUAUUAUGUUACGCCGUUCGGAUCUGC | -1.75 |
| UUCCCUGGUGUGAUUCCGUCCUGCGCGGUUGUUCUCUGGAGCAGCGUUCUUUUAUCUCCGUCCGCCUUCUCUCCUACCUAAGUGCGUGCC | 1.38 |

Sample 2
Target: RING finger protein unkempt homolog, zinc fingers 1-6, GST-SBP tag (UNK, Homo sapiens, UniProt Q9C0B0, residues 30-357)
UniProt Q9C0B0, sequence (30-357, looked up): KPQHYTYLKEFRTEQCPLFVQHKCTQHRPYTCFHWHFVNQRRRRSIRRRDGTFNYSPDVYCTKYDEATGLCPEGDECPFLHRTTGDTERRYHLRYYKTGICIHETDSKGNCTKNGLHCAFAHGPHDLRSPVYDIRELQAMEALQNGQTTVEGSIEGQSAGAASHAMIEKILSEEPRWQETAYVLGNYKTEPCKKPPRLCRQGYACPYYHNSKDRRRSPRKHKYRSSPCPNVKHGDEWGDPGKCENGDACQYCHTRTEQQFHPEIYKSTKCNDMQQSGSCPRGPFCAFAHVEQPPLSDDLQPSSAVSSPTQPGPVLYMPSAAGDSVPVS
Technique: RNA Bind-n-Seq
Form: RNA
Sample: in vitro
Tested at: not given
Notes: RNA with constant flanks, human and mouse sites, ends assumed
Relative to: input RNA pool
Reading: higher = stronger binding
Shared flanks, not repeated: GGGAGUUCUACAGUCCGACGAUC … CAACAGAGGAUUGAGCAUCA
| Sequence | bound/input enrichment [ratio] |
| --- | --- |
| AUAAAGACUGAAAACAAGGUCCUGAACAAAGUCAUCACUGUUUAUGCGGCACUUUGUUGCGAGAUCAAGAAAUUAAAAUAUGAGGCAGAAACUAAGUUUUACAAUGGUCUUCUGUUUUAU | 0.381 |
| UUCCCUGGAGAGUUCAUGAAGAGCUGGAAUGACUGCCUCAACAAAGAAGGCUUUGACAAAAUAGAUAUCAGUGCAGUUGUGGCAUAUACCAUCGCUGUAAAGGAGGAUGGGGAGCUCAAC | 0.711 |
| GCCAGCCCUGCGCCUCGCGCCGUCGCGCAUGCGUCCUGGUCUUUCUCUAGAGUUGUAUAUAUAGAACAUCCUGGAGUCCACCAUGAACGGACAGUUGGAUCUAAGUGGGAAGCUAAUCAU | 0.137 |
| GUGAAGGCUGAGAUACCAUUGAAUGAGCAAACCACUUUAAGUAAGGAGAAUUACCUGUUCACUAGAGGCCAAACAUUUGAUGAAAAGACCCUAGCCAGAGAUUUAAUUCAGGCAGCACAG | 0.289 |
| AACAAUGAUAUUAGUAGUCUGCCCUGCUCAUUGGGAAAUCUUCAUUUGAAAUUCCUGGCACUAGAAGGAAAUCCUCUAAGAACCAUUCGAAGAGAAAUUAUAGCUAAAGGAACUCAAGAA | 0.228 |
| CUCUAGGCUUUUCAGAUGUGGAUCAUACCUAUGCUCAAAGAACUCAGCUCUUUGACACCUUAGUAAAUUUCUUUCCUGACAGCAUGACUCCUCCUAAAGGCAACCUGGUAGACCUGAUCA | 9.8 |

Sample 3
Target: Histone acetyltransferase KAT6A, both winged helices, GST fusion (KAT6A, Homo sapiens, UniProt Q92794, residues 1-181)
Technique: protein binding microarray
Form: double-stranded DNA, one strand shown
Sample: in vitro
Tested at: not given
Notes: 8-mer, flanks averaged, mean of 2 arrays, mostly near background
Relative to: not given
Reading: higher = stronger binding
Target sequence (chain): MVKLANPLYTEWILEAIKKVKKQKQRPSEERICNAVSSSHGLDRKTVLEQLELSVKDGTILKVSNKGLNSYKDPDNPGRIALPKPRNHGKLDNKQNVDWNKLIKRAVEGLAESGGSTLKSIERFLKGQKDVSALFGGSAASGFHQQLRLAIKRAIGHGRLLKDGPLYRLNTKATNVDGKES
| Sequence | E-score |
| --- | --- |
| AATATTAG | -0.178 |
| TGAGACCA | -0.115 |
| CACTTCGG | 0.0246 |
| GTACTTTA | -0.126 |
| AGGGGCAC | -0.134 |
| CTTTAACC | -0.017 |
| TAACTAAA | -0.0638 |

Single results of other studies
| Substance | target | test | system | conditions | scale | quantity | result |
| --- | --- | --- | --- | --- | --- | --- | --- |
| PhoQ, residues 284 288 289 292 302 303 SLGVVW | PhoP, residues 12 14 15 18 19 AWHSL (Escherichia coli, UniProt P23836) | Sort-seq, refers to: YFP reporter | E. coli | PhoQ-PhoP variant library, together with: 10 µM Mg2+ | relative to: high Mg2+ state, higher = stronger signaling | fold induction | 4.61 |

Repeated from above (sample 3):
| Sequence | E-score |
| --- | --- |
| CTTTAACC | -0.017 |
| TAACTAAA | -0.0638 |
